Results pooled from the literature.
Numbers after ± are the reported error.
B1: glutathione reductase (human); sequence looked up; chain MACRQEPQPQGPPPAAGAVASYDYLVIGGGSGGLASARRAAELGARAAVVESHKLGGTCVNVGCVPKKVMWNTAVHSEFMHDHADYGFPSCEGKFNWRVIKEKRDAYVSRLNAIYQNNLTKSHIEIIRGHAAFTSDPKPTIEVSGKKYTAPHILIATGGMPSTPHESQIPGASLGITSDGFFQLEELPGRSVIVGAGYIAVEMAGILSALGSKTSLMIRHDKVLRSFDSMISTNCTEELENAGVEVLKFSQVKEVKKTLSGLEVSMVTAVPGRLPVMTMIPDVDCLLWAIGRVPNTKDLSLNKLGIQTDDKGHIIVDEFQNTNVKGIYAVGDVCGKALLTPVAIAAGRKLAHRLFEYKEDSKLDYNNIPTVVFSHPPIGTVGLTEDEAIHKYGIENVKTYSTSFTPMYHAVTKRKTKCVMKMVCANKEEKVVGIHMQGLGCDEMLQGFAVAVKMGATKADFDNTVAIHPTSSEELVTLR
B2: human catalase; sequence looked up; chain ADSRDPASDQMQHWKEQRAAQKADVLTTGAGNPVGDKLNVITVGPRGPLLVQDVVFTDEMAHFDRERIPERVVHAKGAGAFGYFEVTHDITKYSKAKVFEHIGKKTPIAVRFSTVAGESGSADTVRDPRGFAVKFYTEDGNWDLVGNNTPIFFIRDPILFPSFIHSQKRNPQTHLKDPDMVWDFWSLRPESLHQVSFLFSDRGIPDGHRHMNGYGSHTFKLVNANGEAVYCKFHYKTDQGIKNLSVEDAARLSQEDPDYGIRDLFNAIATGKYPSWTFYIQVMTFNQAETFPFNPFDLTKVWPHKDYPLIPVGKLVLNRNPVNYFAEVEQIAFDPSNMPPGIEASPDKMLQGRLFAYPDTHRHRLGPNYLHIPVNCPYRARVANYQRDGPMCMQDNQGGAPNYYPNSFGAPEQQPSALEHSIQYSGEVRRFNTANDDNVTQVRAFYVNVLNEEQRKRLCENIAGHLKDAQIFIQKKAVKNFTEVHPDYGSHIQALLDKYNAEKPKNAIHTFVQSGSHLAAREKANL

Substance = insulin aspart; test system = Japanese type 1 diabetes patients, serum free; setting = subcutaneous, 0.2 U/kg single, least squares mean; measurement = Cmax; result = 0.298 nM
Substance = insulin icodec; test system = human mild hepatic impairment, serum; setting = subcutaneous, 1.5 U/kg single dose; how to read = baseline: normal hepatic function; measurement = AUC(0-inf) increase; result = 13%
Substance = ACEEQNPWARYLEWLFPTETLLLEL; assay = ex vivo fluorescence imaging; test system = peptide, BALB/c mice, 4T1 tumour-bearing, muscle; setting = intravenous, 5 nmol, 48 h post-injection; how to read = higher = more uptake; measurement = mean fluorescence intensity; result = 179 ± 16.1 a.u.
Substance = insulin degludec; test system = human; setting = subcutaneous, 0.4 IU/kg, 2 FC level, fat content group, single dose, reference formulation; measurement = Cmax; result = 0.0183 ± 0.0038 µg/mL
Substance = ACEQNPIYWARYADWLFTTPLLLLDLALLVDADEGT; assay = ex vivo fluorescence imaging; test system = peptide, BALB/c mice, 4T1 tumour-bearing, 4T1 tumour; setting = intravenous, 5 nmol, 2 h post-injection; how to read = higher = more uptake; measurement = mean fluorescence intensity; result = 3860 ± 1060 a.u.
Substance = rituximab; test system = relapsed iNHL patients; setting = dose not given, after fourth infusion; measurement = serum concentration; result = 365 µg/mL
Substance = adrenomedullin; assay = RP-HPLC; test system = HALO Peptide ES-C18 column; setting = 25 µM, formic acid/acetonitrile, 10 min gradient; measurement = retention time; result = 3.75 min
Substance = insulin icodec; assay = log-log regression of Cmax,ss vs dose; test system = Chinese type 2 diabetes patients, serum; setting = subcutaneous, once weekly; measurement = dose-proportionality slope; result = 0.85
Substance = B1 (glutathione reductase); target or system = PP6C (human); assay = co-immunoprecipitation, IP-MS; test system = CYB5R4 knockout cells; setting = concentration not given; how to read = baseline: CYB5R4 knockout over parental; measurement = log2 fold change; result = 0.2
Substance = ACDDQNPWRAYLDLLFPTDTLLLDLLW; assay = ex vivo fluorescence imaging; test system = peptide, BALB/c mice, 4T1 tumour-bearing, liver; setting = intravenous, 5 nmol, 48 h post-injection; how to read = higher = more uptake; measurement = mean fluorescence intensity; result = 255 ± 37.2 a.u.
Substance = pegcetacoplan; assay = measured: ear and labyrinth disorders; test system = patients with PNH; setting = dose not given, phase Ib trial; measurement = number of TEAEs; result = 1
Substance = insulin; assay = LC-MS/MS; test system = human serum pool; setting = 24 h, 4 °C, high pool, before preparation, together with: C-peptide 8.70 ng/mL; measurement = concentration; result = 0.00954 µg/mL
Substance = Neuropeptide Y; assay = RP-HPLC; test system = HALO Peptide ES-C18 column; setting = 25 µM, formic acid/acetonitrile, 10 min gradient; measurement = retention time; result = 5.07 min
Substance = durvalumab; test system = human, plasma; setting = intravenous, 1500 mg, cycle 4 day 1, together with: adavosertib 125 mg twice daily; measurement = Cmax; result = 482 µg/mL
Substance = B2 (human catalase); target or system = PP6C (human); assay = co-immunoprecipitation, IP-MS; test system = CYB5R4 knockout cells; setting = concentration not given; how to read = baseline: CYB5R4 knockout over parental; measurement = log2 fold change; result = -0.32
